Results pooled from the literature.
A part holds a random share of what one study measured. “And” joins repeats or separate records; there may be more than shown.
UniProt P09619, sequence (whole entry, looked up): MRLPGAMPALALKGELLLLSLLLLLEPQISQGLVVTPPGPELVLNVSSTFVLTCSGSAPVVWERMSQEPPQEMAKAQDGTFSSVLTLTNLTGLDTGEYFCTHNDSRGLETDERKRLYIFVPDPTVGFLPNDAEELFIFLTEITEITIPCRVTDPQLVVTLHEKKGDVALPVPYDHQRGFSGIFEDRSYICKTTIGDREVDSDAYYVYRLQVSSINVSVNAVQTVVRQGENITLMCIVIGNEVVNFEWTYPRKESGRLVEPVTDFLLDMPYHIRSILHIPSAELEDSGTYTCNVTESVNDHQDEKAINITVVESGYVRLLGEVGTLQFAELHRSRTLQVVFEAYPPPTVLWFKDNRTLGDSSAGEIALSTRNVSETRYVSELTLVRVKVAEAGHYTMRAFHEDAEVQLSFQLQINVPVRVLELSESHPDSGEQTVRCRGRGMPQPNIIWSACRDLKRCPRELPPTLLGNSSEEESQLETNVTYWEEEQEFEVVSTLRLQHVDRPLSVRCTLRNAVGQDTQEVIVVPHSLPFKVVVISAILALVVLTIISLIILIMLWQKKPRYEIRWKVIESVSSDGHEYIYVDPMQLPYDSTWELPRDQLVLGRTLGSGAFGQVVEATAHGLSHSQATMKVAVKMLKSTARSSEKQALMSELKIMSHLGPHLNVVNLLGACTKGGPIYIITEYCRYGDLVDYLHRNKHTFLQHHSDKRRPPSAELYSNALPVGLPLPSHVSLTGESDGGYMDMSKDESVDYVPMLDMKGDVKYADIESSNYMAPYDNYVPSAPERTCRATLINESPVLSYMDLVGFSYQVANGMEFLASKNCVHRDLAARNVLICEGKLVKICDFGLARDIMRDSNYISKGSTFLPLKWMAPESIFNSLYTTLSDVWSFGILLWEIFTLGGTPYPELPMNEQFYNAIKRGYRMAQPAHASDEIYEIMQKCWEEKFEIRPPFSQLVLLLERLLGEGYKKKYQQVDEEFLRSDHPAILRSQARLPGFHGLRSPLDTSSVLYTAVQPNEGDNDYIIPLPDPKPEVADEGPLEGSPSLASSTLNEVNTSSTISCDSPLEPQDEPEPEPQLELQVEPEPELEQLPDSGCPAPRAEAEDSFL
UniProt P21802, sequence (whole entry, looked up): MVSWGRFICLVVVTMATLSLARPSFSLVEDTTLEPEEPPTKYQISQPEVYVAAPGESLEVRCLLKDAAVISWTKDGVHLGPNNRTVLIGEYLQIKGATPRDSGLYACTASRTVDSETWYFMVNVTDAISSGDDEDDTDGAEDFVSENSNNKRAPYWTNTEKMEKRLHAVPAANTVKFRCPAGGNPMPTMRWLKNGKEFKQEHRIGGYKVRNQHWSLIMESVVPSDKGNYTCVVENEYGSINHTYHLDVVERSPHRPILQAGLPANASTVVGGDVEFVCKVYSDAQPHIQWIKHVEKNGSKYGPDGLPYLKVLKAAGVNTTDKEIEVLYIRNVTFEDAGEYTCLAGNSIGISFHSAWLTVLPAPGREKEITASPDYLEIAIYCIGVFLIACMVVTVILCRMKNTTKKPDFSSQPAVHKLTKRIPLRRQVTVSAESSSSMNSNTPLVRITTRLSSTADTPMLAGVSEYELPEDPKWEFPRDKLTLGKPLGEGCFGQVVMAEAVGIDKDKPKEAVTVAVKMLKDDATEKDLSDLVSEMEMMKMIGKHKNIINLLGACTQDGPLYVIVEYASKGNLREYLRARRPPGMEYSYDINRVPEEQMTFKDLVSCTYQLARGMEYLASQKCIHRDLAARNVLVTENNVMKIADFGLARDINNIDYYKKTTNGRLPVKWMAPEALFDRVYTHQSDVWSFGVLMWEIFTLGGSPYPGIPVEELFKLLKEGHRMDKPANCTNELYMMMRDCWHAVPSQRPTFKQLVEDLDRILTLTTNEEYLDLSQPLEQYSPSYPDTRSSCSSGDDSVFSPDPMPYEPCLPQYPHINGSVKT
UniProt Q6XUX3, sequence (whole entry, looked up): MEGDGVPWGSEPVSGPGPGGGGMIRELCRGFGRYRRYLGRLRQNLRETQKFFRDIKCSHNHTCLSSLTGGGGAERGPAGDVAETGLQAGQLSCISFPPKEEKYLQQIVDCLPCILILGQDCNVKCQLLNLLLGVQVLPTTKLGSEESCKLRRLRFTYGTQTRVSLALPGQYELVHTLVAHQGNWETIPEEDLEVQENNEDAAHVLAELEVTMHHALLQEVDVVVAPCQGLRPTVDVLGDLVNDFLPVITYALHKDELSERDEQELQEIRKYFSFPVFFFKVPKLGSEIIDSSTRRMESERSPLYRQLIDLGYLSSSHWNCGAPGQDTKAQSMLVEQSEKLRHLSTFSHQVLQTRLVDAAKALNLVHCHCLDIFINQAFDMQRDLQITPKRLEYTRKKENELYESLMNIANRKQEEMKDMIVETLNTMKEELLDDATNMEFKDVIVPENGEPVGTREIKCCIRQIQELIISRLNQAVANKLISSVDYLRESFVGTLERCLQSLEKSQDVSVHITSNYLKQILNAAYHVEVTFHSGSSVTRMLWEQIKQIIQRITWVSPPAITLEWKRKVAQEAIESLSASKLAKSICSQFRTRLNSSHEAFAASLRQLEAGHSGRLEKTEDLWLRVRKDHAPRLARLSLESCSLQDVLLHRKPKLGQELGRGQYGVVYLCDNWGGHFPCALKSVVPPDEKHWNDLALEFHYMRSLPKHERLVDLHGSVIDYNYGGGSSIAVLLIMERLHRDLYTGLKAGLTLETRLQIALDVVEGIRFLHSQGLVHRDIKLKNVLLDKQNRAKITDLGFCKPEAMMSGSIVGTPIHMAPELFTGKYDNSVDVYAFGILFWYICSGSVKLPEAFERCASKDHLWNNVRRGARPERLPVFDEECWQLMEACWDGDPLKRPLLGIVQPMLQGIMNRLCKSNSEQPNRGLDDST
UniProt Q04771, sequence (whole entry, looked up): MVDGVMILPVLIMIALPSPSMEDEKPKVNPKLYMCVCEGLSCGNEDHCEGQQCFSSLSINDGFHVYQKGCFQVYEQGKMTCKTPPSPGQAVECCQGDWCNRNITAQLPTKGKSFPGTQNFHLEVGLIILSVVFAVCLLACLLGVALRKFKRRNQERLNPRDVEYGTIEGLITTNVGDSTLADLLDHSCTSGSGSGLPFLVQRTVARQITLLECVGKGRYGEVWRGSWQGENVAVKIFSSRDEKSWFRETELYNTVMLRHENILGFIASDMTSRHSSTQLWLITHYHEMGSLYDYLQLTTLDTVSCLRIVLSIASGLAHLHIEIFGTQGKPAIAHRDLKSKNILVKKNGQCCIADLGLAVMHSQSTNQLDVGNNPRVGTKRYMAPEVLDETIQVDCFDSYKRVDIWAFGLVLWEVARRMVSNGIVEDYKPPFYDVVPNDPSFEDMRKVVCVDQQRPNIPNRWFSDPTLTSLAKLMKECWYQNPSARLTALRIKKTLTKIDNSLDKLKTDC
UniProt P15735, sequence (whole entry, looked up): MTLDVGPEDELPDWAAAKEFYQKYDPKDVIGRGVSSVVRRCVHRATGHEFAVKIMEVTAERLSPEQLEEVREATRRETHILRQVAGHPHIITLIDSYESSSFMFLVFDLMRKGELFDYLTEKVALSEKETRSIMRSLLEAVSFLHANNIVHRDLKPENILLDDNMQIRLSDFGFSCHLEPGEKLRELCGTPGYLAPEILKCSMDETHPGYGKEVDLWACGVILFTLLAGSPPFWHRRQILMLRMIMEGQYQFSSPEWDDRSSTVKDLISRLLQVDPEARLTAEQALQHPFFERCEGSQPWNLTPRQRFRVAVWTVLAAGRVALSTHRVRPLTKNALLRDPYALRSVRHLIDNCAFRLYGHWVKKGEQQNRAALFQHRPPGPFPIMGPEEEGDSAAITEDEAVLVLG
UniProt Q9BYT3, sequence (whole entry, looked up): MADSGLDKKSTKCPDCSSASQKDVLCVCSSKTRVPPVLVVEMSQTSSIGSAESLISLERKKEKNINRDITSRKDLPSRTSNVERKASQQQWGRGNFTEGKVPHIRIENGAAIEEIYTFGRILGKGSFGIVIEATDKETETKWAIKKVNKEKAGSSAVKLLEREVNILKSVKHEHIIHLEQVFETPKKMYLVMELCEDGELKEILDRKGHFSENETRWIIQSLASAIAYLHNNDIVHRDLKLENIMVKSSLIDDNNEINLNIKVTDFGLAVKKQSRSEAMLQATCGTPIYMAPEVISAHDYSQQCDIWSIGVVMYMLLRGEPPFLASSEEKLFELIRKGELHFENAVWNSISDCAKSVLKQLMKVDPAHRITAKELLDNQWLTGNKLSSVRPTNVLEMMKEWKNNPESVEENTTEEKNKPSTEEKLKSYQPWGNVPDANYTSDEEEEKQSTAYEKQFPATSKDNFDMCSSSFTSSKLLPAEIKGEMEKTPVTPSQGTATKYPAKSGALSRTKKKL

Set 1
Compound: COc1ccc2c(c[n+](C)c3c4cc5c(cc4ccc23)OCO5)c1OC
Observed: enzyme activity
Action: inhibitor
Tested at: 0.5 µM
Baseline: control
target | remaining activity [%]
Activin receptor type-1 (ACVR1, Homo sapiens, UniProt Q04771) | 93.2
Phosphorylase b kinase gamma catalytic chain, liver/testis isoform (PHKG2, Homo sapiens, UniProt P15735) | 94.8
Fibroblast growth factor receptor 2 (FGFR2, Homo sapiens, UniProt P21802) | 101
Platelet-derived growth factor receptor beta (PDGFRB, Homo sapiens, UniProt P09619) | 93.5
Dual serine/threonine and tyrosine protein kinase (DSTYK, Homo sapiens, UniProt Q6XUX3) | 86.4

Set 2
Cell line: mouse MPNST tumor cells
Method: high-content immunofluorescence imaging
Refers to: nuclear SOX9
Tested at: 10 µM
Time: 12 h
Setting: mean of 2 replicates
Baseline: DMSO control
Reading: higher = more nuclear SOX9
Compound | nuclear SOX9 intensity
CCC(=O)O[C@H]1CC[C@H]2[C@@H]3CCC4=CC(=O)CC[C@]4(C)[C@H]3CC[C@]12C | 89.7 % of DMSO
CC(C)(C)c1cc(C(C)(C)C)c2c(c1)C(O)(C(F)(F)F)C(=O)O2 (racemic) | 99.5 % of DMSO
Cc1ccccc1C(c1ccccc1C)N1C2CCC1CC(O)(c1ccccc1)C2 (stereo not drawn) | 101 % of DMSO

Set 3
SMILES: CNC(=O)c1ccc(-c2cnn3ccc(C(=O)N(C)c4ccc(Cl)c(C(=O)OC)c4)cc23)cc1
Organism: Cryptosporidium parvum
Method: time-kill
Cell line: HCT-8
Strain: nanoluciferase-expressing
Reading: higher = more parasites
tested at | time | parasite luminescence
0.2469 µM | 48 h | 26100 RLU and 27300 RLU
0.00305 µM | 48 h | 238000 RLU and 279000 RLU
6.667 µM | 4 h | 88100 RLU and 78300 RLU
0.7407 µM | 72 h | 23100 RLU and 21200 RLU

Set 4
Target: 5-hydroxytryptamine receptor 2C (HTR2C, Homo sapiens, UniProt P28335)
UniProt P28335, sequence (whole entry, looked up): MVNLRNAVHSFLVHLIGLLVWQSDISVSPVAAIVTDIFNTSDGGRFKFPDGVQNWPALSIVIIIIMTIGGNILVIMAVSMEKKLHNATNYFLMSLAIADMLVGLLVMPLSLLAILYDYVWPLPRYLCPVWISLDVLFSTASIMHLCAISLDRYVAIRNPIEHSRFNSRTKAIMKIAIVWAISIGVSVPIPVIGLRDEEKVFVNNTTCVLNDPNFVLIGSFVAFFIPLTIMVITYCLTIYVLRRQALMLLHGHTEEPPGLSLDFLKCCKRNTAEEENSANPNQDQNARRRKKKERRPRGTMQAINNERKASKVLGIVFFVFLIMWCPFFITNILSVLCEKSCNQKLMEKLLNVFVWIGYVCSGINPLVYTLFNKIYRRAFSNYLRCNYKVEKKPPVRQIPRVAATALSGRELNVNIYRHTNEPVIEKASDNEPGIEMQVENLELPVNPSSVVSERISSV
Observed: ligand displacement
Tested at: 10 µM
Compound | inhibition
COc1ccc2c(c1)O[C@@H](c1ccc(OC)c(OC)c1)C[C@H]2NC(=O)C1(c2ccc3c(c2)OC(F)(F)O3)CC1 | -16.9%
O=C(N[C@H]1CCCCC/C=C\C2C[C@@]2(C(=O)O)NC(=O)[C@@H]2C[C@@H](Oc3ccncc3)CN2C1=O)OC1CCCC1 (stereo partly drawn) | 7.99%
O=C(NC[C@@H]1[C@H]2CN(C(=O)OCc3cc(C(F)(F)F)cc(C(F)(F)F)c3)C[C@@H]12)c1ccc2[nH]nnc2c1 | 41.5%
N#CN1CC[C@H](C(=O)Nc2nc3c(s2)CN(C(=O)CN=[N+]=[N-])CC3)C1 | 18.2%
COc1ccc2cc(OCC3(C(=O)O)CN(C(=O)c4ccc(F)cc4)C3)ccc2c1 | 12.3%
Cc1ccccc1Oc1cc(-n2c(=O)cc(C(F)(F)F)[nH]c2=O)c2ccccc2c1Cl | 0.89%
CNCc1ccccc1-c1csc([C@@H](C)Nc2nc(C)nc3cc(OC)c(OC)cc23)c1 | 73.7%
CC(=O)C1=C(C)N(c2cccc(C(F)(F)F)c2)C(=O)N[C@H]1c1ccc(C#N)nc1 | 29%
C[C@H](NC(=O)Nc1cc2[nH]ncc2c(CO)n1)c1ccccn1 | 13.6%
Cn1nc(C(=O)NCc2ccc(C(=O)O)cc2)cc1-c1ccc2[nH]ccc2c1 | -9.67%
O=C(c1ccc(F)cc1)N1CC(COc2ccc(Br)cc2)(C(=O)O)C1 | 30.2%
CCS(=O)(=O)c1cc2cc(C[C@@](O)(CC(C)(C)c3ccc(F)cc3C(N)=O)C(F)(F)F)[nH]c2cn1 | 7.33%
FC(F)(F)c1ccc2c(c1)nc(-c1cccnc1)n2C1CC1 | 30.8%
Cn1cc(Cl)c2c(Oc3c(F)cc(Nc4cc(Cl)nc(N)n4)cc3F)ccnc21 | 2.72%

Single results of other studies
SMILES | target or system | assay | system | conditions | quantity | value
C[C@@H]1C[C@@H]([C@H](O)CC2CC(=O)NC(=O)C2)C(=O)[C@@H](C)C1 | A-375 | – | – | 100 µM, 18 h | viability | 77%
CC#CC(=O)N1CCC[C@H]1c1nc(-c2ccc(C(=O)Nc3ccccn3)cc2)c2c(N)nccn12 | Serine/threonine-protein kinase 33 (STK33, Homo sapiens, UniProt Q9BYT3) | enzyme activity, inhibitor | – | 1 µM | inhibition | 0%
CCN1CC2(COC)CCC(OC)C34C5CC6(O)C(OC)CC(OC(C)=O)(C5C6C(=O)c5ccc(OC)cc5)C(C(OC)C23)C14 (stereo not drawn) | A-375 | – | – | 100 µM, 18 h | viability | 84.1%
COc1ccc(-c2c(Nc3ccccn3)[nH]c3c(C4=CCCCC4)c(-c4ccccc4)nn3c2=O)cc1 | – | – | patients with advanced malignancies | oral, treatment-emergent adverse events | back pain incidence | 10%

Repeated from above (set 4):
Compound | inhibition
O=C(c1ccc(F)cc1)N1CC(COc2ccc(Br)cc2)(C(=O)O)C1 | 30.2%
CCS(=O)(=O)c1cc2cc(C[C@@](O)(CC(C)(C)c3ccc(F)cc3C(N)=O)C(F)(F)F)[nH]c2cn1 | 7.33%
FC(F)(F)c1ccc2c(c1)nc(-c1cccnc1)n2C1CC1 | 30.8%
Cn1cc(Cl)c2c(Oc3c(F)cc(Nc4cc(Cl)nc(N)n4)cc3F)ccnc21 | 2.72%
